# Assay results gathered from unrelated publications.
# Protocols differ between the studies behind these lines. Numbers after ± are the reported error.
Structure (SMILES),test,system,conditions,tissue uptake
C[C@H](O)[C@@H](NC(=O)[C@H]1CCCN1C(=O)[C@@H](CCCCN)NC(=O)[C@@H](CO)NC(=O)[C@@H](Cc1ccc(O)cc1)NC(=O)[C@@H](CC(N)=O)NC(=O)CCOCCOCCOCCNC(=O)CN1CCN(CC(=O)O)CCN(CC(=O)O)CCN(CC(=O)O)CC1)C(=O)N[C@H](CC(=O)O)C(=O)N[C@H](CCCNC(=N)N)C(=O)N[C@H](CCC(N)=O)C(=O)N[C@H](Cc1ccc(O)cc1)C(=O)N[C@H](Cc1c[nH]cn1)C(=O)N[C@H](Cc1ccccc1)C(N)=O [copper-64 labelled],,"C57BL/6J mice, bone","intravenous, 1.85 MBq, 1 h, radiolabelled",0.41 ± 0.18 %ID/g
CC(C)C[C@@H](NC(=O)[C@@H](CCCNC(=N)N)NC(=O)[C@@H](Cc1c[nH]cn1)NC(=O)[C@@H](Cc1c[nH]c2ccccc12)NC(=O)[C@@H](Cc1c[nH]cn1)NC(=O)[C@@H](Cc1ccccc1)NC(=O)[C@H](NC(=O)[C@@H](Cc1ccc(O)cc1)NC(=O)CNC(=O)CNC(=O)CCOCCOCCOCCNC(=O)CN1CCN(CC(=O)O)CCN(CC(=O)O)CC1)[C@H](C)O)C(=O)N[C@H](CC(N)=O)C(=O)N1CCC[C@@H]1C(=O)O [gallium-68 labelled],,"C57BL/6 mice, male, spleen","intravenous, 1.85 MBq, 60 min, with: GP12 blocking",1.79 ± 0.39 %ID/g
CC[C@H](C)[C@H](NC(=O)[C@H](CCCCN)NC(=O)CNC(=O)[C@H](CC(C)C)NC(=O)[C@H](Cc1ccccc1)NC(=O)[C@H](CCCCN)NC(=O)[C@H](CO)NC(=O)[C@H](Cc1ccccc1)NC(=O)[C@H](Cc1c[nH]c2ccccc12)NC(=O)[C@H](CCC(N)=O)NC(=O)[C@@H](NC(=O)[C@H](Cc1ccccc1)NC(=O)CCCCCNC(=O)CN1CCN(CC(=O)O)CCN(CC(=O)O)CCN(CC(=O)O)CC1)C(C)C)C(=O)N[C@@H](CCC(=O)O)C(=O)N1CCC[C@H]1C(=O)N[C@@H](CC(=O)O)C(=O)N[C@H](C(=O)N[C@@H](CO)C(=O)N[C@@H](CCC(N)=O)C(=O)N[C@H](C(=O)N[C@@H](CCC(N)=O)C(=O)N[C@@H](CC(=O)O)C(=O)N1CCC[C@H]1C(=O)N[C@@H](CC(N)=O)C(=O)N[C@@H](CC(=O)O)C(=O)N[C@@H](CCC(N)=O)C(=O)N[C@@H](Cc1ccc(O)cc1)C(=O)N[C@@H](CCC(=O)O)C(=O)N1CCC[C@H]1C(=O)N[C@@H](Cc1ccccc1)C(=O)O)C(C)C)C(C)C [copper-64 labelled],,"C57BL/6 mice, male, naive, white fat",1 h,0.46 ± 0.09 %ID/g
[2H]C([2H])([18F])[C@]([2H])(N)C(=O)O,PET,"athymic nude mice, U-87 MG, muscle","dose not given, 15 min post-injection",1.24 ± 0.09 %ID/cc
CC[C@H](C)[C@H](NC(=O)[C@@H](Cc1c[nH]c2ccccc12)NC(=O)[C@@H]1CCCN1C(=O)[C@H](CCCCN)NC(=O)[C@H](CCCCN)NC(=O)CCNC(=O)CCNC(=O)CN1CCN(CC(=O)O)CCN(CC(=O)O)CCN(CC(=O)O)CC1)C(=O)N[C@@H](C[Si](C)(C)C)C(=O)O [gallium-68 labelled],ex vivo biodistribution,"nude mice, HT-29 xenograft, colon","90 min, with: levocabastine 0.5 µmol",0.37 ± 0.08 %ID/g
CSCC[C@H](NC(=O)CNC(=O)[C@H](CCCCN)NC(=O)[C@H](CC(C)C)NC(=O)[C@@H]1CCCN1C(=O)[C@H](CO)NC(=O)[C@H](Cc1c[nH]cn1)NC(=O)[C@H](Cc1c[nH]c2ccccc12)NC(=O)[C@H](CCCNC(=N)N)NC(=O)[C@H](CC(C)C)NC(=O)[C@H](CCCNC(=N)N)NC(=O)[C@H](Cc1c[nH]c2ccccc12)NC(=O)[C@H](CS)NC(=O)CCCCCNC(=O)CN1CCN(CC(=O)O)CCN(CC(=O)O)CCN(CC(=O)O)CC1)C(=O)O [copper-64 labelled],ex vivo biodistribution,"BALB/c nude mice, ovaries","intravenous, dose not given, 2 h, Huh-7 tumour-bearing",1.23 %ID/g
CCCC[C@H]1C(=O)N(C)[C@@H](CCCC)C(=O)N[C@@H](CCCNC(=O)CN2CCN(CC(=O)O)CCN(CC(=O)O)CCN(CC(=O)O)CC2)C(=O)N[C@H](C(=O)NCC(N)=O)CSCC(=O)N[C@@H](Cc2ccc(O)cc2)C(=O)N(C)[C@@H](C)C(=O)N[C@@H](CC(N)=O)C(=O)N2CCC[C@H]2C(=O)N[C@@H](Cc2c[nH]cn2)C(=O)N[C@@H](CC(C)C)C(=O)N(C)CC(=O)N[C@@H](Cc2c[nH]c3ccccc23)C(=O)N[C@@H](CO)C(=O)N[C@@H](Cc2c[nH]c3ccccc23)C(=O)N1C [gallium-68 labelled],,"NOD/SCID mice, CHO-hPD-L1 xenograft, bone","60 min, atezolizumab 10 mg/kg pretreatment",2.42 ± 0.62 %ID/g
CC[C@H](C)[C@H](NC(=O)[C@H](CCCNC(=N)N)NC(=O)[C@H](CCCCN)NC(=O)[C@H](Cc1ccc(O)cc1)NC(=O)[C@H](CC(=O)O)NC(=O)[C@H](C)NC(=O)CNC(=O)CCOCCOCCOCCNC(=O)CN1CCN(CC(=O)O)CCN(CC(=O)O)CCN(CC(=O)O)CC1)C(=O)N[C@H](C(=O)N[C@H](C(=O)N[C@@H](CCCCN)C(=O)N[C@H](C(=O)N[C@@H](CC(N)=O)C(N)=O)C(C)C)C(C)C)[C@@H](C)O [copper-64 labelled],ex vivo gamma counting,"C57BL/6J male mice, B16-F10 tumour, heart","intravenous, 1.85 MBq, 5 min",2.52 ± 0.421 %ID/g

# Excerpt of the above:
Structure (SMILES),test,system,conditions,tissue uptake
CC[C@H](C)[C@H](NC(=O)[C@H](CCCCN)NC(=O)CNC(=O)[C@H](CC(C)C)NC(=O)[C@H](Cc1ccccc1)NC(=O)[C@H](CCCCN)NC(=O)[C@H](CO)NC(=O)[C@H](Cc1ccccc1)NC(=O)[C@H](Cc1c[nH]c2ccccc12)NC(=O)[C@H](CCC(N)=O)NC(=O)[C@@H](NC(=O)[C@H](Cc1ccccc1)NC(=O)CCCCCNC(=O)CN1CCN(CC(=O)O)CCN(CC(=O)O)CCN(CC(=O)O)CC1)C(C)C)C(=O)N[C@@H](CCC(=O)O)C(=O)N1CCC[C@H]1C(=O)N[C@@H](CC(=O)O)C(=O)N[C@H](C(=O)N[C@@H](CO)C(=O)N[C@@H](CCC(N)=O)C(=O)N[C@H](C(=O)N[C@@H](CCC(N)=O)C(=O)N[C@@H](CC(=O)O)C(=O)N1CCC[C@H]1C(=O)N[C@@H](CC(N)=O)C(=O)N[C@@H](CC(=O)O)C(=O)N[C@@H](CCC(N)=O)C(=O)N[C@@H](Cc1ccc(O)cc1)C(=O)N[C@@H](CCC(=O)O)C(=O)N1CCC[C@H]1C(=O)N[C@@H](Cc1ccccc1)C(=O)O)C(C)C)C(C)C [copper-64 labelled],,"C57BL/6 mice, male, naive, white fat",1 h,0.46 ± 0.09 %ID/g
